Assay results from different studies.
Numbered parts are unrelated; each lists some results of a single study.
UniProt Q16539, sequence (whole entry, looked up): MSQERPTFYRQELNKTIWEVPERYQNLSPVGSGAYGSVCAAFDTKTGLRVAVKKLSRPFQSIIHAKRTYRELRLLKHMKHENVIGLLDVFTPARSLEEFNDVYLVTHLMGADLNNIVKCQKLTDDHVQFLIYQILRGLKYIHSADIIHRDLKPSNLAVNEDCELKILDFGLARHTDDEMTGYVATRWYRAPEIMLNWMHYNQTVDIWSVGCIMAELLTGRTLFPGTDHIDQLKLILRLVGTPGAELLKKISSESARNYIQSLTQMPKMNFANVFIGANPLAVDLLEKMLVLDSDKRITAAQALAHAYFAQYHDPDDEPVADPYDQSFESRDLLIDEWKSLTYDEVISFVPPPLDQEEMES
UniProt P42680, sequence (whole entry, looked up): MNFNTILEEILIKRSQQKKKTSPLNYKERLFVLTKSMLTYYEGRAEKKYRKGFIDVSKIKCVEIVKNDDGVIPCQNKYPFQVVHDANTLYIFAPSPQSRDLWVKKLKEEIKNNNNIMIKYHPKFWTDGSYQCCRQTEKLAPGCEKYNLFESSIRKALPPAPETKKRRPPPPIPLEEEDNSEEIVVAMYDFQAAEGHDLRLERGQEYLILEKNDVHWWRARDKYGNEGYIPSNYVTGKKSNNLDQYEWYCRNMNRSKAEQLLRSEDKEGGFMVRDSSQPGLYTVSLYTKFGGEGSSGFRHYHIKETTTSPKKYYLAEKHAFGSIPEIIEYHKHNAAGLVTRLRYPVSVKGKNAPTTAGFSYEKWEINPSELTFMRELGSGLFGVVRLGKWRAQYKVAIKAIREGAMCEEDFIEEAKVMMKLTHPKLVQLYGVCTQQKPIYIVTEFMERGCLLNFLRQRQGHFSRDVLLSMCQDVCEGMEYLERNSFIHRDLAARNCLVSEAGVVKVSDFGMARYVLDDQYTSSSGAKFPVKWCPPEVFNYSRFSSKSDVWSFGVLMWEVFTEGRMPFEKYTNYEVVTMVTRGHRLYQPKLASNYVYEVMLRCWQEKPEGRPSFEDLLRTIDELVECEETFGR
UniProt P36897, sequence (whole entry, looked up): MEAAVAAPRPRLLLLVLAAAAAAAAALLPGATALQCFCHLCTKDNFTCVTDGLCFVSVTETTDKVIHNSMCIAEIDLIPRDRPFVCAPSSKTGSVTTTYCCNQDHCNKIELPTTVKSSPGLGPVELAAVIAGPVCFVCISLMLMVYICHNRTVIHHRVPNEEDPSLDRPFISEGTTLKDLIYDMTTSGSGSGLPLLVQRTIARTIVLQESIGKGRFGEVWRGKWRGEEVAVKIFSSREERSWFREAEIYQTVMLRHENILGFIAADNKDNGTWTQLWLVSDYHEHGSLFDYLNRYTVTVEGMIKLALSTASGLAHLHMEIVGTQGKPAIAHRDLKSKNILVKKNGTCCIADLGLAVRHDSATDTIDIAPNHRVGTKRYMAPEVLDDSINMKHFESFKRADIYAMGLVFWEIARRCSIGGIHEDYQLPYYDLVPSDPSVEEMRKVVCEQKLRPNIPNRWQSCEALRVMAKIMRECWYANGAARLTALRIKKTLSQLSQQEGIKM
UniProt P31152, sequence (whole entry, looked up): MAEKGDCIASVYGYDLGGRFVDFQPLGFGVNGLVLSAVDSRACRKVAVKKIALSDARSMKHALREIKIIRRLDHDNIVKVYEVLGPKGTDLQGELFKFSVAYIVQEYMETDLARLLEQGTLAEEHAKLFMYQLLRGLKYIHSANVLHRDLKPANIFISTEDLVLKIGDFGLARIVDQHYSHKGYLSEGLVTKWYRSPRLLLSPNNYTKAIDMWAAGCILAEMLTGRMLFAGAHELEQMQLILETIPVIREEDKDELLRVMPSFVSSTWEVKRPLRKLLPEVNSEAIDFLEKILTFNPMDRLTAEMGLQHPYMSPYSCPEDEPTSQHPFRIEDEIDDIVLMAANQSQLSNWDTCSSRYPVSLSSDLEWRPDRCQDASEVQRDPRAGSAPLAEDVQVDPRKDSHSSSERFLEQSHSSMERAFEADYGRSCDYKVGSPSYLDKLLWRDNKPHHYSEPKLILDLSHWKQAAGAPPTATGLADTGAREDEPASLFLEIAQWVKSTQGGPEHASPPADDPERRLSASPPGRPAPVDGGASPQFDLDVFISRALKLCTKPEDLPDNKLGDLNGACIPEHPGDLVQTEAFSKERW
UniProt P41743, sequence (whole entry, looked up): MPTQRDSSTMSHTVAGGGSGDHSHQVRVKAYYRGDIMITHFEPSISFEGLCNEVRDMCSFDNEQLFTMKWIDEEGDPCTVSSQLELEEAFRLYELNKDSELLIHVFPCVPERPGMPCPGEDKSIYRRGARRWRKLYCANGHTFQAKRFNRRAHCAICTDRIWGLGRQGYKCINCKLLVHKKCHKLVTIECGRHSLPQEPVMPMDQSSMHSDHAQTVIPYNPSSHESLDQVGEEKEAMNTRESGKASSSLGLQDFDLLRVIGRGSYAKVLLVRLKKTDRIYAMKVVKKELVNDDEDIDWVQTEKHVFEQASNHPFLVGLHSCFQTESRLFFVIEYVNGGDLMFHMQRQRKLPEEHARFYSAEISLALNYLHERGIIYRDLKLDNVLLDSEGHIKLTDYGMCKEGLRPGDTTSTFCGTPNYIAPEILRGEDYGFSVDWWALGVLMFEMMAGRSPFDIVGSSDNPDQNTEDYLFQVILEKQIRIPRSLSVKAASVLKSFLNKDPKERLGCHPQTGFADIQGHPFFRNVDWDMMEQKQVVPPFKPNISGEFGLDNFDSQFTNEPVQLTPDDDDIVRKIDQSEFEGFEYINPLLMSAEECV
UniProt O14936, sequence (whole entry, looked up): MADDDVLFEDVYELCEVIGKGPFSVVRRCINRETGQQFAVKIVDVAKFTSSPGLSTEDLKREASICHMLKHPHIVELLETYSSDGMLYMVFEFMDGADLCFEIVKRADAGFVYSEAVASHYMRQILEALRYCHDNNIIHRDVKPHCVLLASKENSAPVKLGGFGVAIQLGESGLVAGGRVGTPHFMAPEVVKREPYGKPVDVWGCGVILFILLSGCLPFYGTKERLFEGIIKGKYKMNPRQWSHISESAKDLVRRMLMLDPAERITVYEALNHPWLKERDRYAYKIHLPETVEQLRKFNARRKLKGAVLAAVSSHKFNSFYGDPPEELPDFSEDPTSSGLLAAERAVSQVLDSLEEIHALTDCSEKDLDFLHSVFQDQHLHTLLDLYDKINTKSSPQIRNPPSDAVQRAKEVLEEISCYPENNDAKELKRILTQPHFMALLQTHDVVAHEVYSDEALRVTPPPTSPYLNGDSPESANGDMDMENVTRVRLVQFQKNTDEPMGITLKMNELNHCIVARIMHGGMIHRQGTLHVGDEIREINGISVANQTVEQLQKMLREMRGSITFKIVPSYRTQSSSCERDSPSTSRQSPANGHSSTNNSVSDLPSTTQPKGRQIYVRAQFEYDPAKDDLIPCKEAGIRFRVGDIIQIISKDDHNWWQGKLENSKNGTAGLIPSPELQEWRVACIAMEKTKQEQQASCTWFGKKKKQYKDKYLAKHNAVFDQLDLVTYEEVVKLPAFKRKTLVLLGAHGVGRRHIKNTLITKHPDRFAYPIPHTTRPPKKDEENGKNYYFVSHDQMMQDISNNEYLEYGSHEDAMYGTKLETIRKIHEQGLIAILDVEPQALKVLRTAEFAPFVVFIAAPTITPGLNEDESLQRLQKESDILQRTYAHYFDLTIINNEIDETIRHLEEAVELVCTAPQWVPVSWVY

Set 1 — observed: cell-free assay; method: competition with immobilised ligand; tested at: 1 µM
Structure (SMILES): O=C(NCc1ncc(C(F)(F)F)cc1Cl)c1ccc2c(c1)C1(CCS(=O)(=O)CC1)[C@@H](C1CC1)N2S(=O)(=O)c1ccc(F)cc1
target	remaining binding [%]
MET (Homo sapiens, UniProt P08581, Y1235D)	100
SRPK2 (Homo sapiens, UniProt P78362)	100
PRKCI (Homo sapiens, UniProt P41743)	100
NEK5 (Homo sapiens, UniProt Q6P3R8)	86
AKT2 (Homo sapiens, UniProt P31751)	100
MET (Homo sapiens, UniProt P08581, M1250T)	100
PIK3CA (Homo sapiens, UniProt P42336, E545K)	74
MKNK1 (Homo sapiens, UniProt Q9BUB5)	78
PIK3CG (Homo sapiens, UniProt P48736)	95
TEC (Homo sapiens, UniProt P42680)	100
MAPK14 (Homo sapiens, UniProt Q16539)	100
WNK1 (Homo sapiens, UniProt Q9H4A3)	79
COQ8B (Homo sapiens, UniProt Q96D53)	85
Ribosomal protein S6 kinase alpha-2, N-terminal kinase domain (RPS6KA2, Homo sapiens, UniProt Q15349)	93
CASK (Homo sapiens, UniProt O14936)	64
Tyrosine-protein kinase ABL1, phosphorylated (ABL1, Homo sapiens, UniProt P00519, Y253F)	100
NEK9 (Homo sapiens, UniProt Q8TD19)	72
TGFBR1 (Homo sapiens, UniProt P36897)	84
CDKL5 (Homo sapiens, UniProt O76039)	67
MAPK4 (Homo sapiens, UniProt P31152)	89

Set 2 — species: human; medium: microsomes or S9; tested at: 2 µM; time: 0.5 h
SMILES	remaining compound
Cc1cccc(-c2c(-n3cncn3)nc3ccccc3c2O)c1	88.3%
COc1ccccc1CNc1ccc2[nH]c(=O)[nH]c2c1	> 100%
CCOc1ccc(Nc2c(-c3cccc(O)c3)nc3ccccn23)cc1	45%
O=C(C[C@H]1CCC[C@@H](N2CCCC2)[C@@H]1C(=O)c1cccs1)c1cccs1	5.95%
Cc1cc2c3c(c1)C1(NC(=O)c4ccccc4N1)C(=O)N3C1(CCCCCC1)CC2(C)C (stereo not drawn)	5.87%
CNC1=C(c2cc(Br)ccn2)C(=O)C(c2cccc(Cl)c2)O1 (stereo not drawn)	> 100%
O=C(c1nccc2ccccc12)N1CCc2cc(-c3ccno3)ccc21	4.12%
CCCN(CCC)S(=O)(=O)c1cc2c(cc1Cl)Oc1ccc(C)cc1NC2=O	< 1%
Cc1nnsc1C(=O)Nc1onc2c1CSC2	22.3%
COCC1CCCN(c2nnc(-c3n[nH]c4c3CCCC4)n2C)CC1 (stereo not drawn)	74.1%

Set 3 — SMILES: C=CCc1ccc(O)c(-c2cc(CC=C)ccc2O)c1; observed: chloride current; method: whole-cell patch clamp
Target: Anoctamin-1 (ANO1, Homo sapiens, UniProt Q5XXA6, del476-501)
UniProt Q5XXA6, sequence (whole entry, unmodified, looked up): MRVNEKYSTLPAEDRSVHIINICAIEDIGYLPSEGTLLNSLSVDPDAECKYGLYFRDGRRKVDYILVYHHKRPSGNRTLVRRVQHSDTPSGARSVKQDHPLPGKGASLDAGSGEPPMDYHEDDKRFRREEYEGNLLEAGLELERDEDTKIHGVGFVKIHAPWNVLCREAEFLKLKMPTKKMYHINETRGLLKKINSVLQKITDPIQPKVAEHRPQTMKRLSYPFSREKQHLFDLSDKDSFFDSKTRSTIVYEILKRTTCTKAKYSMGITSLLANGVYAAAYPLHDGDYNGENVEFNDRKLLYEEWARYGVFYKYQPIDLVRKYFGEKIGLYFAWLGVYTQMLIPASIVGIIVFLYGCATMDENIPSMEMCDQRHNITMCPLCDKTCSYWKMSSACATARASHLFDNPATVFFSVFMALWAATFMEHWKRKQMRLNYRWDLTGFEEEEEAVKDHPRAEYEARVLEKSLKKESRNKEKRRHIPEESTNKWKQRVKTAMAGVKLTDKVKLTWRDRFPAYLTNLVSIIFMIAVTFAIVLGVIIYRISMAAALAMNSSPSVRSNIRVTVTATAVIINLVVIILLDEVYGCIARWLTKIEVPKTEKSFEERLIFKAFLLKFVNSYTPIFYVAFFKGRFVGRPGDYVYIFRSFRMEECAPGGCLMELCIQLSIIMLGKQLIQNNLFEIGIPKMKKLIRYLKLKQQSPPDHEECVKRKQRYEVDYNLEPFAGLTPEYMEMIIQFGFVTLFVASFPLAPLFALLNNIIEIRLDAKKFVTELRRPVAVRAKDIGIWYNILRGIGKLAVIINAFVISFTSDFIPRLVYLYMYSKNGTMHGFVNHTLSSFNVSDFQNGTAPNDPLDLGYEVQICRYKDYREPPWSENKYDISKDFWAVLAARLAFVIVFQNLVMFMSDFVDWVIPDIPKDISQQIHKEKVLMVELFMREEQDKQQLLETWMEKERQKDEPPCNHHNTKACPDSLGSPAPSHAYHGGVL
conditions	normalised current
1 µM, -40 mV, 300 nM free Ca2+	-0.0745
10 µM, -60 mV, 300 nM free Ca2+	-0.0645
1 µM, -100 mV, 300 nM free Ca2+	-0.103
100 µM, -40 mV, 300 nM free Ca2+, added: honokiol and magnolol 3 µM	-0.0084
30 µM, -20 mV, 300 nM free Ca2+, added: honokiol and magnolol 3 µM	-0.0103
3 µM, -20 mV, 300 nM free Ca2+	-0.0458
30 µM, -100 mV, 300 nM free Ca2+	-0.0532
30 µM, -20 mV, 300 nM free Ca2+	-0.0164
30 µM, -40 mV, 300 nM free Ca2+, added: honokiol and magnolol 3 µM	-0.0161
30 µM, 100 mV, 300 nM free Ca2+	0.501
10 µM, -40 mV, 300 nM free Ca2+	-0.0529
1 µM, -20 mV, 300 nM free Ca2+	-0.0464
100 µM, -40 mV, 300 nM free Ca2+	-0.0161

Set 4 — organism: Sarcocystis neurona; observed: parasite growth; tested at: 10 µM; time: 96 h; notes: first screen; reference: untreated
SMILES	log2 fold change
COC1=CC(=O)C[C@@H](C)[C@]12Oc1c(Cl)c(OC)cc(OC)c1C2=O	0.53
Cc1cccc(C)c1NC(=O)C(C)N (stereo not drawn)	-0.064
CC(C)(C(=O)O)c1ccc(C(O)CCCN2CCC(C(O)(c3ccccc3)c3ccccc3)CC2)cc1 (stereo not drawn)	0.3
C[C@H]1O[C@H](O[C@H]2[C@H](O)[C@@H](O)[C@@H](O[C@H]3[C@H](O)[C@@H](O)C(O)O[C@@H]3CO)O[C@@H]2CO)[C@H](O)[C@@H](O)[C@@H]1N[C@H]1C=C(CO)[C@@H](O)[C@H](O)[C@H]1O (stereo partly drawn)	0.33
COc1cc(CNC(=O)CCCC/C=C\C(C)C)ccc1O	0.2
CCCN1CCCC[C@H]1C(=O)Nc1c(C)cccc1C	-0.11
NC[C@H]1CC[C@H](C(=O)Oc2ccc(CCC(=O)O)cc2)CC1	-0.11
Cc1c(O)c(=O)ccn1C	0.07
CCCCC(=O)O[C@]1(C(=O)CO)CC[C@H]2[C@@H]3CCC4=CC(=O)CC[C@]4(C)[C@H]3[C@@H](O)C[C@@]21C	0.03
OCCN1C[C@H](O)[C@@H](O)[C@H](O)[C@H]1CO	0.18
CN1CCN(CCCN2c3ccccc3Sc3ccc(C(F)(F)F)cc32)CC1	-0.21

For quick reference, copied from above (set 3):
conditions	normalised current
100 µM, -40 mV, 300 nM free Ca2+, added: honokiol and magnolol 3 µM	-0.0084
1 µM, -100 mV, 300 nM free Ca2+	-0.103
30 µM, -20 mV, 300 nM free Ca2+	-0.0164
1 µM, -20 mV, 300 nM free Ca2+	-0.0464
30 µM, -20 mV, 300 nM free Ca2+, added: honokiol and magnolol 3 µM	-0.0103
